# Published values pooled from the literature.
# Each line is one published result; not all experiments were run side by side.
# CTSL: Procathepsin L (CTSL, Homo sapiens, UniProt P07711)
# UniProt P07711, sequence (whole entry, looked up): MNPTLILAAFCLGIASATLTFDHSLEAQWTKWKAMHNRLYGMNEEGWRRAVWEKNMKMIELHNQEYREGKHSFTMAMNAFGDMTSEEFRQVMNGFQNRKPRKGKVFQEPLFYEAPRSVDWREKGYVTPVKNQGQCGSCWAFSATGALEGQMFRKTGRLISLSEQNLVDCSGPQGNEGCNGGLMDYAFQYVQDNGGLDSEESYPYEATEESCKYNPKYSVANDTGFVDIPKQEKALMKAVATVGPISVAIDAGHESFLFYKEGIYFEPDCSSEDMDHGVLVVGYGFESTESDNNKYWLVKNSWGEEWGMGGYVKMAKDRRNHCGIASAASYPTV
# ERN2 RNase domain: Serine/threonine-protein kinase/endoribonuclease IRE2, RNase domain (ERN2, Homo sapiens, UniProt Q76MJ5)
# UniProt Q76MJ5, sequence (whole entry, looked up): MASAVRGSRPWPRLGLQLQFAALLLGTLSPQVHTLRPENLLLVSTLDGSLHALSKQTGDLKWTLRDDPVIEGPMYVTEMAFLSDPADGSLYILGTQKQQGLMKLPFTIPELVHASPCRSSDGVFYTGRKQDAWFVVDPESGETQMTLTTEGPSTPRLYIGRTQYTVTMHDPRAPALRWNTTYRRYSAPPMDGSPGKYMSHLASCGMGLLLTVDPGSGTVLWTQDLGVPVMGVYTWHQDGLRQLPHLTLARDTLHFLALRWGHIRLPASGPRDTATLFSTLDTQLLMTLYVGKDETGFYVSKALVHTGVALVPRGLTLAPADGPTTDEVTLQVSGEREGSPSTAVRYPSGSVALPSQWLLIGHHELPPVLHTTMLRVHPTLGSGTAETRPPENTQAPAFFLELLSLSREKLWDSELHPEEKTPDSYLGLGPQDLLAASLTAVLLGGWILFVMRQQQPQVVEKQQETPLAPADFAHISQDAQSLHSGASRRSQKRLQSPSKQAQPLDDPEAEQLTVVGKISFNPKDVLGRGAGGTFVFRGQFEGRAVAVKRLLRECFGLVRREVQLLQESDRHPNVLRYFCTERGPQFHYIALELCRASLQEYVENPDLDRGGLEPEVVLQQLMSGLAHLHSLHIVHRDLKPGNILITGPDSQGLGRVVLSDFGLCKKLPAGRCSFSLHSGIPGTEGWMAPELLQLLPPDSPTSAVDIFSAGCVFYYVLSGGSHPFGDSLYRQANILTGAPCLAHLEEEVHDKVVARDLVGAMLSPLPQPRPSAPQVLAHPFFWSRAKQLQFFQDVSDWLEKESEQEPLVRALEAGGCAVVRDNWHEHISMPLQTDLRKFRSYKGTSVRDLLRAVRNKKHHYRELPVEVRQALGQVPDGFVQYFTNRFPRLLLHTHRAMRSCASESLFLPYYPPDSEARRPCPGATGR
# ERN1 RNase domain: Serine/threonine-protein kinase/endoribonuclease IRE1, RNase domain (ERN1, Homo sapiens, UniProt O75460)
# UniProt O75460, sequence (whole entry, looked up): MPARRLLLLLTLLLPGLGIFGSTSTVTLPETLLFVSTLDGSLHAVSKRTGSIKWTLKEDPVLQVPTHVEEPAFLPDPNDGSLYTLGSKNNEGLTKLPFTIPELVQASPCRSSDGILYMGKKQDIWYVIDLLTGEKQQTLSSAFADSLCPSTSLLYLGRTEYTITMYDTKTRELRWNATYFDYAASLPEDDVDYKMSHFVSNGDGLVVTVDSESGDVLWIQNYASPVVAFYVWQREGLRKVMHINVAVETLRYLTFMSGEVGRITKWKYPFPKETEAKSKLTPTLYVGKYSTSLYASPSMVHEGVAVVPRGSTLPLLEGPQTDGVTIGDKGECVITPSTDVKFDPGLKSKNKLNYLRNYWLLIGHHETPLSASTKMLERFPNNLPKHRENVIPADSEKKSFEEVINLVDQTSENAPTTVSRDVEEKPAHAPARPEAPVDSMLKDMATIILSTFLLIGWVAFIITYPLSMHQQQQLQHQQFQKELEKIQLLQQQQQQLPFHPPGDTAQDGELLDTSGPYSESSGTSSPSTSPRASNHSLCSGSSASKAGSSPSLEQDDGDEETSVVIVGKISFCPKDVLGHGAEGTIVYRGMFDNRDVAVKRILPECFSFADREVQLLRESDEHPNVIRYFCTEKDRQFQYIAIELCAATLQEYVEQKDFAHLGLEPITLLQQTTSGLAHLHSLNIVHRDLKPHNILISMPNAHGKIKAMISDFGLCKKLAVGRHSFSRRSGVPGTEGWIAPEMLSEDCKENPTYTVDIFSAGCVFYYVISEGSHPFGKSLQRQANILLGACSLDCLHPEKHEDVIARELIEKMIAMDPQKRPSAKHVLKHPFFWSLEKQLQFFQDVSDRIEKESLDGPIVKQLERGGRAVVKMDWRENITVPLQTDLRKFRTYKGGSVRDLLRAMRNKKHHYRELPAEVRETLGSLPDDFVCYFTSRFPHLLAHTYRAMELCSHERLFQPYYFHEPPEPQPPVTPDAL
# Dipeptidyl peptidase 8: Dipeptidyl peptidase 8 (Homo sapiens, UniProt Q6V1X1)
# UniProt Q6V1X1, sequence (whole entry, looked up): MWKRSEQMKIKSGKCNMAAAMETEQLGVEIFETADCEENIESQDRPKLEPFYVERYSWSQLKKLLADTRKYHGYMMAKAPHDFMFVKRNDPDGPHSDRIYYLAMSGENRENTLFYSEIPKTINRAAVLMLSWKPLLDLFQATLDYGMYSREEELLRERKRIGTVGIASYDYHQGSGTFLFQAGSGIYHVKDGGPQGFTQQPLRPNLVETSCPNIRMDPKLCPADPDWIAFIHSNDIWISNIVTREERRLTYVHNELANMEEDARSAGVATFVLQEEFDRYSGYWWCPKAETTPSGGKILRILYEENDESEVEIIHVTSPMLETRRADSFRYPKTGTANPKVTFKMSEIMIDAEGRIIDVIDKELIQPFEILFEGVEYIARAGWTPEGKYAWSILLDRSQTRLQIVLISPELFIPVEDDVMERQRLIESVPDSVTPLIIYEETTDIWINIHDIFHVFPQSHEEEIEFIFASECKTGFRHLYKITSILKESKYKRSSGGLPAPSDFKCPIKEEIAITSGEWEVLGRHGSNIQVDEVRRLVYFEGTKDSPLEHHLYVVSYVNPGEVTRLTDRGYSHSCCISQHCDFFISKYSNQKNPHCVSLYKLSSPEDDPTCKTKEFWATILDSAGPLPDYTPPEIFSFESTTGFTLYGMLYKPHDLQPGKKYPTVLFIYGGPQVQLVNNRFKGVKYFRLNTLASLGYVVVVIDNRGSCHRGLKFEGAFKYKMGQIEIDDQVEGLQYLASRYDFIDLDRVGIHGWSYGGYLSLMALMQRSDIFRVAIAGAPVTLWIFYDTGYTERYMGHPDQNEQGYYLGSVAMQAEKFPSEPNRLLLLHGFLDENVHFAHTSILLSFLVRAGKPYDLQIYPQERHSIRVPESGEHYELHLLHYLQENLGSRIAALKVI
# PTGS2: Prostaglandin G/H synthase 2 (PTGS2, Ovis aries, UniProt P79208)
# UniProt P79208, sequence (whole entry, looked up): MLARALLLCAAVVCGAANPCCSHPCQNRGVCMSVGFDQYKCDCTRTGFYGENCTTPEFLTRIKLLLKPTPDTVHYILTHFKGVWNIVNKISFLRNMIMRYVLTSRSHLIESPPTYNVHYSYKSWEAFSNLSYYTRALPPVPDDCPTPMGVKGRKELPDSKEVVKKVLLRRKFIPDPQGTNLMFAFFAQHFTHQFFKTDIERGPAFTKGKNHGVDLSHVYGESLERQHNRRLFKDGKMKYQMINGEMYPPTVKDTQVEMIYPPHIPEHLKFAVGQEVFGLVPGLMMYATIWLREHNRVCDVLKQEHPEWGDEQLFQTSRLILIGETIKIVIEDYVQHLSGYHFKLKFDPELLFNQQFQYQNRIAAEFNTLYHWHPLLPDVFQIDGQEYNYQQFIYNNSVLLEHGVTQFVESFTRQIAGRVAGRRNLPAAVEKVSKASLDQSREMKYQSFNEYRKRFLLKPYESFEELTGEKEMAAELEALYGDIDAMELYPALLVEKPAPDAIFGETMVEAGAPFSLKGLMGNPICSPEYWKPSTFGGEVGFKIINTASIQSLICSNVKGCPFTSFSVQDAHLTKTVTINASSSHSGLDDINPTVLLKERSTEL
# PRSS1: Serine protease 1 (PRSS1, Bos taurus, UniProt P00760)
# UniProt P00760, sequence (whole entry, looked up): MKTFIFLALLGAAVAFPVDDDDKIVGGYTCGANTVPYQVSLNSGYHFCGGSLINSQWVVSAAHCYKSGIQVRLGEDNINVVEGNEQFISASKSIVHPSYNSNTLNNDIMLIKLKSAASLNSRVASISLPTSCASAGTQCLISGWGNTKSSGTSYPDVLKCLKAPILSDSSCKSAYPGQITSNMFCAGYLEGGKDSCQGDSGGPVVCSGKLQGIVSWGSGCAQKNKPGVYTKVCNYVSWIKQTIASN
# UniProt Q969S8, sequence (whole entry, looked up): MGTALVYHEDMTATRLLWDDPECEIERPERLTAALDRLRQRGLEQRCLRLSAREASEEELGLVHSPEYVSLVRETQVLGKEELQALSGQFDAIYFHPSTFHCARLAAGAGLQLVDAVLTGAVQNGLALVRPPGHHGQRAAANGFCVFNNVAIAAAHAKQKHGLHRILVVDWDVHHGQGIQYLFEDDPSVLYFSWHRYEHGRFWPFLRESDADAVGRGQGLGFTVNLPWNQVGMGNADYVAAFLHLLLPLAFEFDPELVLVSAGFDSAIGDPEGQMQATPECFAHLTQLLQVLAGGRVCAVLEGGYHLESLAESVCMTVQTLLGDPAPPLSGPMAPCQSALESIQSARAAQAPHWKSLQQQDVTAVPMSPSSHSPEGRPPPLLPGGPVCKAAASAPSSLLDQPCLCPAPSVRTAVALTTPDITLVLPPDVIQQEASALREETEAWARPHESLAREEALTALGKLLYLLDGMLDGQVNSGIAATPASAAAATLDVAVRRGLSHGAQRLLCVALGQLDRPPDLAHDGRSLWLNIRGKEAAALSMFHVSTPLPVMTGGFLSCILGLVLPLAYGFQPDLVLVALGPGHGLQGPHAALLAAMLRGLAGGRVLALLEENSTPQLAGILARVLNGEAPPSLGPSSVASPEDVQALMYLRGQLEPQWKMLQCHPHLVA
# UniProt P19784, sequence (whole entry, looked up): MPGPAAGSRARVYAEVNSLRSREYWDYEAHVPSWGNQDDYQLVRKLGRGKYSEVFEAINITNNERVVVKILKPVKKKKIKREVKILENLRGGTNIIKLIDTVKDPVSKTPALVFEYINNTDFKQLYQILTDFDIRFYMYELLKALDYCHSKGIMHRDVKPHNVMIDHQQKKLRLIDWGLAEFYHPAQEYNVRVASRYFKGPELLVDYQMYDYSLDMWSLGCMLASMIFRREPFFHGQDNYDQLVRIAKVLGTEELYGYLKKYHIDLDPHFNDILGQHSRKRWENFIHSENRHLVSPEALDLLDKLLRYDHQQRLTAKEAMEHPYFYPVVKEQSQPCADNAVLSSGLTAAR
target,assay,setting,how to read,selectivity ratio,SMILES
CTSL,,,baseline: rhodesain over cathepsin L kinact/Ki,5.8,CC(C)(C)OC(=O)NC(Cc1cccc(Cl)c1)C(=O)NCC=CS(=O)(=O)c1ccccc1 (stereo not shown)
"Carbonic anhydrase 2 (CA2, Homo sapiens, UniProt P00918)",,,baseline: IC50 CA II over IC50 CA IX,5.6,CC(C)c1ccc2c(c1)CC[C@H]1[C@](C)(C(=O)O)CCC[C@]21C
iNOS,,,baseline: Ki eNOS over Ki iNOS,~6 fold,Cc1cc(N)nc(CCc2cncc(C(CN)Cc3cc(C)cc(N)n3)c2)c1 (racemic)
"Casein kinase II subunit alpha' (CSNK2A2, Homo sapiens, UniProt P19784)",ADP-Glo,,baseline: IC50 CK2α' over CK2α,3.3 fold,CCn1c(-c2cc(NC(=O)c3cnccn3)n[nH]2)cc2ccccc21
ERN2 RNase domain,RNase activity,,baseline: IRE1α IC50 over IRE1β IC50,0.02 fold,NC1CCC(Nc2nccc(-c3cccnc3Oc3ccc(NS(=O)(=O)Cc4ccccc4Cl)c4ccccc34)n2)CC1 (stereo not shown)
"Non-receptor tyrosine-protein kinase TYK2 (TYK2, Homo sapiens, UniProt P29597)","kinase activity, inhibitor",,baseline: IC50 TYK2 over IC50 Src,15 fold,COc1ccc2c(c1)C(=C1Nc3ccccc3C1=NOCC(O)CO)C(=O)N2 (stereo not shown)
ERN1 RNase domain,RNase activity,,baseline: IRE1β IC50 over IRE1α IC50,> 300 fold,NC1CCC(Nc2nccc(-c3cccnc3Oc3cccc4c(NS(=O)(=O)C5CCC5)cccc34)n2)CC1 (stereo not shown)
"Polyamine deacetylase HDAC10 (HDAC10, Homo sapiens, UniProt Q969S8)",,,baseline: HDAC10 over other HDACs,≥ 30 fold,COc1ccc(C(=O)NO)cc1NC(=O)c1ccc(-c2ccccc2)cc1
ERN2 RNase domain,RNase activity,,baseline: IRE1α IC50 over IRE1β IC50,4.5 fold,O=S(=O)(Nc1cc(F)c(Oc2ncccc2-c2ccnc(N[C@H]3CCCNC3)n2)cc1Cl)c1ccccc1Cl
Dipeptidyl peptidase 8,inhibitor,together with: Gly-Pro-AMC,baseline: IC50 DPP8/9 over DPP4,> 1000,Cn1c(=O)c(=O)n(C)c2cc(S(=O)(=O)Nc3ccc(S(=O)(=O)Nc4ncccn4)cc3)ccc21
PTGS2,"enzyme activity, inhibitor, enzyme immunoassay",,baseline: IC50 COX-1 over IC50 COX-2,5.97,COc1ccc(/N=N/c2ccc(O)c(C3c4c([nH]c(=S)[nH]c4=O)Nc4[nH]c(=S)[nH]c(=O)c43)c2)cc1OC
PRSS1,,,baseline: Ki trypsin over Ki MASP-2,0.4,CC[C@H](C)[C@H](NC(=O)[C@@H]1CSSC[C@H](NC(=O)[C@H](Cc2ccc(O)cc2)NC(=O)CNC(C)=O)C(=O)N[C@@H](CO)C(=O)N[C@@H](CCCNC(=N)N)C(=O)N[C@@H](CO)C(=O)N[C@@H](Cc2ccc(O)cc2)C(=O)N2CCC[C@H]2C(=O)N2CCC[C@H]2C(=O)N[C@@H](C(C)C)C(=O)N1)C(=O)N1CCC[C@H]1C(=O)N[C@@H](CC(=O)O)C(=O)O
ERN2 RNase domain,RNase activity,,baseline: IRE1α IC50 over IRE1β IC50,1 fold,O=S(=O)(Nc1ccc(Oc2ncccc2-c2ccnc(N[C@H]3CCCNC3)n2)cc1F)c1ccccc1Cl
PTGS2,,,baseline: COX-1 IC50 over COX-2 IC50,20,C[C@H]1CCCC[C@@H]1NC(=O)/C(C#N)=C/c1cn(-c2ccccc2)nc1-c1cccs1
PTGS2,"enzyme activity, inhibitor, enzyme immunoassay",,baseline: IC50 COX-1 over IC50 COX-2,2.72,O=c1[nH]c(=S)[nH]c2c1C(c1cc(/N=N/c3ccc(F)c(Cl)c3)ccc1O)c1c([nH]c(=S)[nH]c1=O)N2
CTSL,,,baseline: rhodesain over cathepsin L kinact/Ki,1.3,COC(=O)c1cc2cc3c(cc2oc1=O)N(CC(=O)NC(Cc1ccc(C)cc1)C(=O)NCC=CS(=O)(=O)c1ccccc1)CCC3 (stereo not shown)
ERN1 RNase domain,RNase activity,,baseline: IRE1β IC50 over IRE1α IC50,~10 fold,O=S(=O)(Cc1ccccc1Cl)Nc1ccc(Oc2ncccc2-c2ccnc(N[C@H]3CCCNC3)n2)cc1F
PTGS2,"enzyme activity, inhibitor, enzyme immunoassay",,baseline: IC50 COX-1 over IC50 COX-2,9.02,O=c1[nH]c(=S)[nH]c2c1C(c1cc(/N=N/c3ccc(Br)cc3)ccc1O)c1c([nH]c(=S)[nH]c1=O)N2
PRSS1,,,baseline: Ki trypsin over Ki MASP-2,0.4,CC[C@H](C)[C@H](NC(=O)[C@@H]1CSSC[C@H](NC(=O)[C@H](Cc2ccc(O)cc2)NC(=O)CN)C(=O)N[C@@H](CO)C(=O)N[C@@H](CCCNC(=N)N)C(=O)N[C@@H](CO)C(=O)N[C@@H](Cc2ccc(O)cc2)C(=O)N2CCC[C@H]2C(=O)N2CCC[C@H]2C(=O)N[C@@H](C(C)C)C(=O)N1)C(=O)N1CCC[C@H]1C(=O)N[C@@H](CC(=O)O)C(=O)O
Dipeptidyl peptidase 8,,,baseline: Ki DPP9 over Ki target,0.2,CCC1(CC)C(=O)N(c2cccc(CN3CCN(Cc4cccc5cccnc45)CC3)c2)C1=O
PRSS1,,,baseline: HNE over PRSS1,≥ 818 fold,O=C(Nc1ccc(C(=O)Nc2ccc(C(=O)Nc3ccc(S(=O)(=O)O)c4cc(S(=O)(=O)O)cc(S(=O)(=O)O)c34)cc2)cc1)Nc1ccc(C(=O)Nc2ccc(C(=O)Nc3ccc(S(=O)(=O)O)c4cc(S(=O)(=O)O)cc(S(=O)(=O)O)c34)cc2)cc1
"sigma-2 receptor, rat",,,baseline: Ki sigma-2 over Ki VAChT,680,"O=C(O)C(=O)O.O=C(c1ccc(=O)n(CCF)c1)C1CCN(C2Cc3ccccc3CC2O)CC1 (single isomer, unassigned; (+))"

# A few entries again:
target,assay,setting,how to read,selectivity ratio,SMILES
Dipeptidyl peptidase 8,inhibitor,together with: Gly-Pro-AMC,baseline: IC50 DPP8/9 over DPP4,> 1000,Cn1c(=O)c(=O)n(C)c2cc(S(=O)(=O)Nc3ccc(S(=O)(=O)Nc4ncccn4)cc3)ccc21
PTGS2,"enzyme activity, inhibitor, enzyme immunoassay",,baseline: IC50 COX-1 over IC50 COX-2,2.72,O=c1[nH]c(=S)[nH]c2c1C(c1cc(/N=N/c3ccc(F)c(Cl)c3)ccc1O)c1c([nH]c(=S)[nH]c1=O)N2
